Assay results of several laboratories.
Each numbered part is a random draw from the data of one study; scales do not carry over between parts. Changes are numbered by the printed parent chain.

Sample 1
Target: Ras GTPase-activating protein-binding protein 1, full length (G3BP1, Homo sapiens, UniProt Q13283)
Sequence of UniProt Q13283 (whole entry, looked up): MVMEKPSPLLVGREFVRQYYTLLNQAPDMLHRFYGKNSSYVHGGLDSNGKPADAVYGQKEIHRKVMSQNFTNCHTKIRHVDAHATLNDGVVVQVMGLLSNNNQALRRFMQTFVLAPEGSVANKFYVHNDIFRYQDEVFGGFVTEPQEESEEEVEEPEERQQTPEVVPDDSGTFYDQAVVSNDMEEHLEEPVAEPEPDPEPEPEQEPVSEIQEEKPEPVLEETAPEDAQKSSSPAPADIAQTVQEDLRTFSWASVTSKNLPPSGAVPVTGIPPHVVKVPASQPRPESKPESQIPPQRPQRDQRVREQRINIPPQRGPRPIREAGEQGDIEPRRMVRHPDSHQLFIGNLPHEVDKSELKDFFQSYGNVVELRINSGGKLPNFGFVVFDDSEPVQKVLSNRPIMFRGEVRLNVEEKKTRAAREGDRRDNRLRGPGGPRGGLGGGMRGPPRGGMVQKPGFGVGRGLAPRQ
Technique: RNA Bind-n-Seq
Form: RNA
Matrix: in vitro
Concentration: 200 nM
Notes: whole 134-nt RNA, ends assumed
Together with: 150 mM LiCl
Relative to: input library
Reading: higher = stronger binding
Measurement: log2 enrichment
Each molecule: 7-deaza-guanosine replaces G
Shared flanks, not repeated: GGGAGUUCUACAGUCCGACGAUC … UGGAAUUCUCGGGUGUCAAGG
CACAGACAACACGCACCCACACAGACACAGAGGGAAGGGGUUGGGAUGAGGACAGGGUGCACAGCAGGGCGGGGUAGGACCCCAGCCCCU: 0.261
CCUGUGCUACACAUCGUAUGUACCGAAUCGGUUUUUUUGGUUUUUUUGGGGUUUUUUUGGGAAAGUAUUAUGUUACGCCGUUCGGAUCUG: 0.119
AAGUCCUGUGCUACACAUCGUAUGUACCGAAUCGGGUUUGGGAAAAAAAGGGUGGGAAAGUAUUAUGUUACGCCGUUCGGAUCUGCACUU: -0.788
GUCCUGUGCUACACAUCGUAUGUACCGAAUCGGGUUUUUUUGGGAGGGAAAAAAAGGGAAAGUAUUAUGUUACGCCGUUCGGAUCUGCAC: -0.806
AGUCCUGUGCUACACAUCGUAUGUACCGAAUCGGAAAAAGGUUUUUUUGGAAAAAGGAAAGUAUUAUGUUACGCCGUUCGGAUCUGCACU: -2.59
CACAGACAACACGCACCCACACAGACACCGAGGGAAGGGGUUGGGAUGGGGACAGGGUGCACAGCAGGGCGGGGUAGGACCCCAGCCCCU: 1.05
GCAGGAAGUAAAAACAAAUGGAAAUGCUUCGGAUAGUGGCAGGGGUGGGGGUUGCUAAGGAAAGGGUGGGAUGGGAGUGGGUAAACAGUU: -0.415

Sample 2
Target: RNA binding protein fox-1 homolog 2, RRM domain, GST-SBP tag (RBFOX2, Homo sapiens, UniProt O43251-10, residues 100-194)
Technique: RNA Bind-n-Seq
Form: RNA
Matrix: in vitro
Concentration: 365 nM
Notes: natural RNA segment, single round, ends assumed
Relative to: no-protein control
Reading: higher = stronger binding
Measurement: RBNS enrichment (R)
Shared flanks, not repeated: GGGAGUUCUACAGUCCGACGAUC … UGGAAUUCUCGGGUGCCAA
Residues (chain): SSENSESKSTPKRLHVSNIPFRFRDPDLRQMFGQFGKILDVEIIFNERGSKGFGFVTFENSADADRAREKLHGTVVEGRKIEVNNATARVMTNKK
GAAUUACAUUUUCAAAAAAAGGUUUUUAUAAUGAAGUUGUUUAUUAAAAACUUCUGAAUGAUGUGUUGGGAGUUGUGAACCUGUCUGAUUGGGAAACGGUUGGAGAGAGC: 0.811
GAUAUGGCCCUCAUCGUCGUGUAAUGUUUGUGCACCUCCCUGCUGUGCAGGCAGCUUGGAGUGCAGGCUGUGUUGCUGGGAGUGCGCUGGCUGCUUAGAAACCACGAGAC: 0.823
GAGCCUAUUUCACAUUCUCAGACUUUUAGUUUCUGCUUUAUAACCGCAUUUAAAAUGUAUUCUUAAUGUGCUGUAGUGUGUGUGAGCCGGUGUCCAGAGGUGUGAAAUAU: 0.541
AAUUGUGUUUUGUGUUCACCAUAUACAGAUCAUUUCUCAUCUGUAGUGUGCCCCAAAUGCAGCUUCACUUUCCAGGUACCCUGAUGCAGAAUAAAGUUUUCAUCAUAAAC: 0.423
GGGCACUGGCGGUCAAGUGUGGAGGAGAGGGGUGGAGGCUGCCCCAUUGAGAUCUUCCUGCUGAGUCCUUUCCAGGGGCCAAUUUUGGAUGAGCAUGGAGCUGUCACCUC: 2.46
CUCUUAAUUGUCAAAAUUUAAUUCCACAUUUGUAAAUGUAAAAAUAAAGUCUAUUUUUUUUGGUCCAUUGGUGUUGUUAGCAUCUCCAGCUUUAUACCAAGACACCAUCC: 0.934
AGGACCAGAACCUCCUCCCCACCUGUGGCCUGGCCAAAACCCCCACUUGUGGUCUGAAUGUUCUCCUGAGGCCUCUGGCUAGAGUCUAGCCCCACCCAGGGGGAGGGGCU: 0.966
CUGCUAAUGCAGGACAGUCUACUUUUCAGUUAAUUCAGAGCCCUUAGCUUGUGUUAUCAAAUGUUCUAAUGCAUAUUUAUAAGAGAAAAAAGGUUUAAAGUAUUUAUUCC: 0.542
UGCACUUAUGAACAAGGAACCUUAUUUUCAAUUUCUGUGUAAUUUUGCAAGGCUGUACAAUGUGCUGAUGCAAGCCUUUUUCAGUUCAAGAGAAUAAAUGUUUACAAAUG: 0.704
AGGAGAGAUGCCUCAGGCUUCAGACCUUACCUGGGUUUUCAGGGCAAACAUAAAUGUAAAUACACUGAUUUAUUCUGUUACUAGAUCAGGUUUUAGGGUCCUGCAAAAGG: 0.346
CAGGACGACUUGGAAAAAAAGGCGGCGGACAGUUGGCCAGAGGGAUGGAGACUGGUGGGGACGCCCCCGCCUCCCUGUCCCCCGUUUCACACACUGGACACCAUCACCUC: 0.192
GAUCUCCUGACCUCGUGAUCCGCCCGCCUCGGCCUCCCAAAGUGCUGGGAUUACAGGCGUGAGCCACCGUGCCUGCCCCAGAAUGGUUUUUAAAGCCACAGUUGAGAGGC: 0.213

Sample 3
Target: ABI1, truncated, D143A, DHFR fusion (Arabidopsis thaliana)
Technique: DHFR PCA, deep sequencing
Matrix: yeast
Notes: methotrexate growth selection, single substitutions
Together with: (+)-ABA 17 µM
Relative to: wild-type fitted maximum
Reading: higher = stronger binding
Measurement: relative binding score
Parent: PYL1, truncated, DHFR fusion (Arabidopsis thaliana); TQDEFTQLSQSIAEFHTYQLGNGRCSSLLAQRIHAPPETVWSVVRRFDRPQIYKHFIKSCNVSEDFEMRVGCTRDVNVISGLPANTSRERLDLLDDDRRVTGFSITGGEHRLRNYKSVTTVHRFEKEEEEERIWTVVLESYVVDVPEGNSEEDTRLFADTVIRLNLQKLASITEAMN
E131D: 91.4%
G102P: -0.989%
F15H: 79.1%
I105R: -6.96%
R32K: 84.4%
T173W: 18.9%
S59Q: 79.2%
L138D: -10.4%
Y115R: -0.701%
L20W: 67%
I162V: 85.9%

Sample 4
Target: Sal-like protein 4, full length isoform A (SALL4, Homo sapiens, UniProt Q9UJQ4, residues 1-1053)
Sequence of UniProt Q9UJQ4 (whole entry, looked up): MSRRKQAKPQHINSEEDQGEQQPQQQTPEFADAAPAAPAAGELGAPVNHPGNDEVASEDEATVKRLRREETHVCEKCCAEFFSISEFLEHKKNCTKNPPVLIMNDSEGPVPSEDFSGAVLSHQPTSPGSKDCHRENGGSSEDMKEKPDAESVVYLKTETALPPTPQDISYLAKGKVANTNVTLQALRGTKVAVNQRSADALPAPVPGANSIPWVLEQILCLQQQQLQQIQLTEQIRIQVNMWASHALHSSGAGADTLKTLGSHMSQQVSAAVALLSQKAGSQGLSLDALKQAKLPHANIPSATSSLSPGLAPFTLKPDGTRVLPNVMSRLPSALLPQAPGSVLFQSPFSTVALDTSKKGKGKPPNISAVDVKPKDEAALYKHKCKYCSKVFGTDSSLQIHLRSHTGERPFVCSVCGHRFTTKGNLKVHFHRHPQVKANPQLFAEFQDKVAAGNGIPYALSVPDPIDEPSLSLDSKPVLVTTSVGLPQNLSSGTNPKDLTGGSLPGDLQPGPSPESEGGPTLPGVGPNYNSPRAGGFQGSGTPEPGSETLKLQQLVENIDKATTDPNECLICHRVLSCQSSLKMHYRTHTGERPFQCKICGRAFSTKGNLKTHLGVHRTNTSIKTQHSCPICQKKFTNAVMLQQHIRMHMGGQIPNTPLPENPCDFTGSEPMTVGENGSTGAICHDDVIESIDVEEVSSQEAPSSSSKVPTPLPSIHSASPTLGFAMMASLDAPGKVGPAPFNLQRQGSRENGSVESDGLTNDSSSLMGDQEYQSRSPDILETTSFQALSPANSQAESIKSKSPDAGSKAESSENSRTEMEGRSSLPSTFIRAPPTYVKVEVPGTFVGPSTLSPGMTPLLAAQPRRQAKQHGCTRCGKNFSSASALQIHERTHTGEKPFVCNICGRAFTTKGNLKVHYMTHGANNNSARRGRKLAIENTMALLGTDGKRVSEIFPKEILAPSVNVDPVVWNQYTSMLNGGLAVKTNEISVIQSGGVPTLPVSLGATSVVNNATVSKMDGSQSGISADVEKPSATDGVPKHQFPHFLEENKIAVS
Technique: universal PBM
Form: double-stranded DNA, one strand shown
Matrix: in vitro
Concentration: 600 nM
Notes: 8-mer, flanks averaged, mean of replicates
Reading: higher = stronger binding
Measurement: E-score
GCATTGCA: -0.0218
AATTGTGG: 0.129
AATTCTAT: 0.207
ACTTCTCG: 0.0843
TCTTCCCA: -0.139
AATAGAGT: 0.188
AAAGGCGT: -0.122
CGATCTGA: -0.0696
GCATGGGA: -0.199
GACAGACC: -0.249
ACCGCCGC: -0.234
ATCCTTTG: 0.0813
ACCTCTGA: -0.0537
CACCGGCC: -0.435
AACTAGAA: 0.236
AAGCTTGA: -0.0133
AAAGCTGT: 0.0202

Sample 5
Target: CCND3, cyclin fold, Cln2 fusion (human)
Technique: yeast growth competition, sequencing
Matrix: yeast
Notes: weak parent motif
Relative to: not given
Reading: higher = stronger binding
Measurement: normalised enrichment score
Parent: MICAL3 docking peptide (human); LQLRRQLSFSEDS
D12C: -0.0141
E11Q: -0.0281
R4I: 0.301
E11I: -0.442
R4S: 0.0685
F9M: -0.192
F9R: 0.169
E11H: -0.0151
S10Y: 0.278
R5I: 0.14
R4K: -0.0584
L3A: 0.384
S10Q: -0.0192

Sample 6
Target: Histone acetyltransferase KAT6A, winged helix 2, GST fusion (KAT6A, Homo sapiens, UniProt Q92794, residues 85-181)
Technique: protein binding microarray
Form: double-stranded DNA, one strand shown
Matrix: in vitro
Concentration: not given
Notes: 8-mer, flanks averaged, mean of 2 arrays, mostly near background
Relative to: not given
Reading: higher = stronger binding
Measurement: E-score
Target sequence (chain): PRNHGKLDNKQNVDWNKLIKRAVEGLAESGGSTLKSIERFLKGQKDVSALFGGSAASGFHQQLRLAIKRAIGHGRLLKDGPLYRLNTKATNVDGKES
AATCCTTA: -0.0419
ACCTCCCC: -0.0612
CTCACGCA: 0.209
CCTCACCA: 0.0402
AAATGTCA: -0.0306
CCCCCAAA: -0.035
CTGTGTGC: 0.0187
AGGTTGGC: 0.0456
ACTGCCAA: -0.041
ACATAGAG: -0.148
CCTGACAC: -0.0284
CGCCGGTC: 0.0948
TCCGTCCA: 0.0731
CGATAAGA: -0.0386
CGAAATCC: 0.142
CACCTTGA: -0.0334
AATTGGAC: 0.00329

Sample 7
Target: Hepatocyte nuclear factor 3-beta, forkhead domain (FOXA2, Homo sapiens, UniProt Q9Y261, residues 142-269)
Technique: protein-binding microarray
Form: double-stranded DNA, one strand shown
Matrix: in vitro
Concentration: not given
Notes: k-mer, scored over probes, only values ≥0.25
Reading: higher = stronger binding
Measurement: E-score
Construct (chain): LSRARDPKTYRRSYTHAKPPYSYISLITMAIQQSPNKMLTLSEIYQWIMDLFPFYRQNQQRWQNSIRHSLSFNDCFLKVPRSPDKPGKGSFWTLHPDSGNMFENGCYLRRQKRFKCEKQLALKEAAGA
GTAAACAC: 0.344
AATCAACA: 0.362
ATGAACAT: 0.283
CTGTAGTA: 0.332
AGAGGTAT: 0.262
TCTACAAA: 0.287
GTATTTGA: 0.342
AGGATATG: 0.259
TAAGAACA: 0.297

Sample 8
Target: Interferon regulatory factor 3, full length, phosphomimetic (IRF3, Homo sapiens, UniProt Q14653, residues 1-427, S386D/S396D/S398D/S402D/T404D/S405D)
Sequence of UniProt Q14653 (whole entry, unmodified, looked up): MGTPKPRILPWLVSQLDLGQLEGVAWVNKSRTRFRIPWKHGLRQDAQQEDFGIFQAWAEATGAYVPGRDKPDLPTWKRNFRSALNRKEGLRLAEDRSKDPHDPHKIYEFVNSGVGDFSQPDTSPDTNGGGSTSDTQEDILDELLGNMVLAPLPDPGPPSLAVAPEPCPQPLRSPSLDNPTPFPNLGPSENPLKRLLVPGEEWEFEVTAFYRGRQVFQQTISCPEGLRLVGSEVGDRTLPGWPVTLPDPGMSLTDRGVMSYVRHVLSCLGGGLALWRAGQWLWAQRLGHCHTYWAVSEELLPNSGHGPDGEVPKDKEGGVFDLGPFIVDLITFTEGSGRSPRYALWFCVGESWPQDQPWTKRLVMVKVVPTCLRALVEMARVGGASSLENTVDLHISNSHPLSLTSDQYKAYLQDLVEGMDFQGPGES
Technique: protein-binding microarray
Form: double-stranded DNA, one strand shown
Matrix: in vitro
Concentration: 2540 nM top
Notes: 60-bp whole probe
Together with: salmon DNA 0.4 mg/ml
Relative to: random background probes
Reading: higher = stronger binding
Measurement: fitted relative affinity
Shared flanks, not repeated: GCCTAGCAC … GTCTTGATTCGCTTGACGCTGCTG
GACGGTATCGGACGGGGGACGTGCTAG: 0.67 z-score
GAAGAACTGGGGACTGGAGACGTGCTA: -0.91 z-score
GACGGACTGGGGACTGGGGGCGTGCTA: -0.456 z-score
GACGGTTACGGACTGGGGACGTGCTAG: 0.0676 z-score
CATACAATTTCAGATTCCAGTGTGCTA: 2.75 z-score
TTAGATTTCAGGACTGGATTAGTGCTA: 0.619 z-score
TCAAGCCTCAGTCCTCACACTGTGCTA: -0.661 z-score
TTAGGTCTCGTTCTCCTTTAGTGCTAG: 2.22 z-score
TCATCATTTTCTTTAACACTGTGCTAG: 1.36 z-score
TTAGATATCGGGGCTGGATTAGTGCTA: -0.68 z-score
GACGATCTCAGTATCGAGAAGTGCTAG: 0.829 z-score
GACGAACTGAGTATCGAGAAGTGCTAG: -0.0718 z-score
GACGGTTTCCGTATCCTGACGTGCTAG: 6.17 z-score
TCCTCTTTCTCTGCTACCCTCGTGCTA: 2.87 z-score
